Values quoted from earlier work that unrelated publications cite.
Each line is one published result; not all experiments were run side by side. “And” joins repeats or separate records; there may be more than shown. Numbers after ± are the reported error.

C[C@@]12CC=C3c4ccc(O)cc4CC[C@@H]3[C@H]1CC[C@H]2O
EC50 (oestrogen receptor beta; binding, competition binding): 0.00814 µM

CCCCCC/C=C\CCCCCCCC=O
EC50 (Heliothis virescens OR6 with Orco; ion current, agonist, two-electrode voltage clamp; Xenopus oocytes; holding potential -80 mV): 24.8 µM

C[C@]12CC[C@@H]3c4ccc(O)cc4CC[C@H]3[C@@H]1CC1(CCCC1)C2=O
EC50 (oestrogen receptor beta; binding, competition binding): 0.166 µM

CC(=O)c1cccc(N[C@H]2[C@H](N)[C@@](NC(=O)N(C)C)([C@H](C)O)[C@@](C)(O)[C@@]2(O)COC(=O)c2c(C)cccc2O)c1
GI50 (OVCAR-3 (ovarian cancer); cell growth; NCI screen data): < 0.1 µM

C[C@H]1O[C@@H](O[C@H]2[C@@H](O)C[C@H](O[C@H]3[C@@H](O)C[C@H](O[C@H]4CC[C@@]5(C)[C@H](CC[C@@H]6[C@@H]5C[C@@H](O)[C@]5(C)[C@@H](C7=CC(=O)OC7)CC[C@]65O)C4)O[C@@H]3C)O[C@@H]2C)C[C@H](O)[C@@H]1O
EC50 (P-glycoprotein; efflux flux, substrate; rat colon; half-maximal flux): 50.6 ± 8.8 µM

Cc1c(O)c(C23CC4CC(CC(C4)C2)C3)cc2c1CC[C@@H]1[C@@H]2CC[C@]2(C)C(=O)CC[C@@H]12
EC50 (oestrogen receptor beta; binding, competition binding): > 10 µM

O=C(Nc1ncnc2c1ncn2[C@@H]1O[C@@H]2COP(=O)(O)OC2C1O)c1ccccc1 (stereo in doubt)
Km or Ki (PDE6; cyclic nucleotide hydrolysis, substrate or inhibitor, isothermal titration calorimetry): 64.6 µM

COC(=O)[C@]1(c2ccccc2)N=C(c2ccccc2)N(Cc2ccccc2)[C@@H]1c1ccccc1
EC50 (NF-κB transcription; reporter gene, inhibitor, luciferase reporter): 7.5 µM

CC1=C(C(=O)OC2CCCCC2)C(c2ccc([N+](=O)[O-])cc2)C2=C(CC(C)(C)CC2=O)N1 (centres unmarked)
EC50 (Notch; Notch trafficking inhibition): 2.3 µM

COc1ccc(-c2cccc(C(=O)N(C)C)c2)cc1S(=O)(=O)Nc1cccc(NCCNC(=O)c2ccccc2N(C)C)c1
EC50 (orexin receptor 1; luciferase reporter gene, agonist; CHO cells): 2.75 µM

Nc1nc2c(nc(Br)n2[C@@H]2O[C@@H]3COP(=O)(O)O[C@H]3[C@H]2O)c(=O)[nH]1
Km or Ki (PDE6; cyclic nucleotide hydrolysis, substrate or inhibitor, isothermal titration calorimetry): 33 µM

O=C(O)Cc1ccccc1Nc1c(Cl)cccc1Cl
EC50 (TRPA1; agonist; Xenopus oocytes expressing TRPA1): ~210 µM

O=C(OCc1ccccc1)[C@]1(c2ccccc2)N=C(c2ccccc2)N(Cc2ccccc2)[C@@H]1c1ccccc1
EC50 (NF-κB transcription; reporter gene, inhibitor, luciferase reporter): 3.5 µM

O=c1c(O)c(-c2ccc(O)cc2)oc2cc(O)cc(O)c12
EC50 (trypsin): 60 µM and 106 µM

COc1cc2c(cc1C13CC4CC(CC(C4)C1)C3)[C@H]1CC[C@]3(C)[C@@H](O)CC[C@H]3[C@@H]1CC2
EC50 (oestrogen receptor alpha; binding, competition binding): > 10 µM

O=C1c2cccc3c2[C@H](CCC3)CN1[C@@H]1CN2CCC1CC2
half-life (healthy volunteers, plasma; oral, dose not given, netupitant-palonosetron combination, added: oral contraceptives): 41.4 h

CC(=O)O[C@H]1Cc2ccccc2N(C(N)=O)c2ccccc21
focal seizure threshold increase (afterdischarge threshold; mouse kindling model; i.p., 200 mg/kg, 15 min before stimulation): > 289%

For quick reference, copied from above:
C[C@]12CC[C@@H]3c4ccc(O)cc4CC[C@H]3[C@@H]1CC1(CCCC1)C2=O
EC50 (oestrogen receptor beta; binding, competition binding): 0.166 µM
